Results pooled from the literature.
Parts stem from different laboratories: compare values within a part only.
UniProt Q8TDC3, sequence (whole entry, looked up): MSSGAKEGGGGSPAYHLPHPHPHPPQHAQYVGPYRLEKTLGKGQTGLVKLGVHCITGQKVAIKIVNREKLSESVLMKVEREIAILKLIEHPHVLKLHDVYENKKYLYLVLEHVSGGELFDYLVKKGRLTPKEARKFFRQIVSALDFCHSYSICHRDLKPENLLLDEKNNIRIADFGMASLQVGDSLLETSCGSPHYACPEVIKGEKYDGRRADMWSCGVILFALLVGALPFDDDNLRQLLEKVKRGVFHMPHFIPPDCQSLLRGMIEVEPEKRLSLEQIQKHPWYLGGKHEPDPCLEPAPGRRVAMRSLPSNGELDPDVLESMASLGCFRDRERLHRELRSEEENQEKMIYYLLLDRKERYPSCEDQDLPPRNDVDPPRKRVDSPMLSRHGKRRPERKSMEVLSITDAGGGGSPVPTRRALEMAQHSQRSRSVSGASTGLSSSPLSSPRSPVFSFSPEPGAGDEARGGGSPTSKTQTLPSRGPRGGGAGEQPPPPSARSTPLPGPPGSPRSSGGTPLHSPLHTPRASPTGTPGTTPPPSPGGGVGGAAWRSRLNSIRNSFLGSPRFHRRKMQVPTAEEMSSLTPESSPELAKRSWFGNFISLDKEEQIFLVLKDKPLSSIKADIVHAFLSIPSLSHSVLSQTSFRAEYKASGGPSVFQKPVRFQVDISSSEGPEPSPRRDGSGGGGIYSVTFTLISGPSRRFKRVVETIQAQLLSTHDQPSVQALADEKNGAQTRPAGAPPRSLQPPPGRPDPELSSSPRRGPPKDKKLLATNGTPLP

Study 1 — technique: RNA Bind-n-Seq; molecule type: RNA; sample: in vitro; tested at: 15 pmol; notes: 4-mer, random 30-nt RNA, single round; with: DMSO vehicle, 2 mM AMP-PNP; relative to: input library; direction: higher = stronger binding
Target: Eukaryotic initiation factor 4A-I (EIF4A1, Homo sapiens, UniProt P60842, residues 1-406, full length assumed)
UniProt P60842, sequence (whole entry, looked up): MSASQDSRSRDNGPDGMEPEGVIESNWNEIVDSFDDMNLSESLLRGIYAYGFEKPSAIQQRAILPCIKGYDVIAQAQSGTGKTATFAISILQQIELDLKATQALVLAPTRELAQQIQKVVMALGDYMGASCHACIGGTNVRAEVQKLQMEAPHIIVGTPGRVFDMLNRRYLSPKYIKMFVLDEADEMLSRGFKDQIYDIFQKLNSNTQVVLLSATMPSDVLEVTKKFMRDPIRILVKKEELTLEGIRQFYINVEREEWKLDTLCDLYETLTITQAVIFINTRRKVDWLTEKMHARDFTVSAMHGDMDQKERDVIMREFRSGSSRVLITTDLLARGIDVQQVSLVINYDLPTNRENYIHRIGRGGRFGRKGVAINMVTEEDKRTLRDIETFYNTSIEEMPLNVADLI
Strand | 4-mer enrichment [fold]
CGGC | 1.58
UAGC | 0.653
ACCC | 1.84
UAUU | 0.845
CAAU | 1.11
UUUG | 0.864
UGUU | 0.814
CCGA | 1.07

Study 2 — technique: competition protein-binding microarray; molecule type: double-stranded DNA, one strand shown; sample: in vitro; tested at: 2 µM; with: Cbf1 competitor, 0.05 µM; direction: higher = stronger binding; all sequences stand within: … GTCTTGATTCGCTTGACGCTGCTG
Target: Phosphate system positive regulatory protein PHO4, full length, GST-tagged (PHO4, Saccharomyces cerevisiae, UniProt P07270, residues 1-312)
Notes: whole 60-bp probe, lowest competitor level
Target sequence (chain): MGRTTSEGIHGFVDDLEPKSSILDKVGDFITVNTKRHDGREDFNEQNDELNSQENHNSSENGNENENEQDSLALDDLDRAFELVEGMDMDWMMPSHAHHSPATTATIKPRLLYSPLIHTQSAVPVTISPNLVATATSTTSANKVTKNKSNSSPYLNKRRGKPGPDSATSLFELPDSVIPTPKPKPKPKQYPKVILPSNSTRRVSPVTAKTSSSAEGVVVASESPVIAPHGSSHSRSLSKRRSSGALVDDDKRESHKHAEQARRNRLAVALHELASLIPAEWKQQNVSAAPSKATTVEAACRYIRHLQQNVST
Strand | fluorescence intensity [a.u.]
ATTGTTAAAGTAATCCACGTGTAGTTGATTATTGAT | 20500
TACACTTCGTATTTGCACGATATGTTTCCCTTTTAA | 6360
AGTGCTTTCCTTTGTCACCGGCGTAACGGATTCGCT | 3000
GTCTTGTCTCATTGTCACCGCACTTTCCCCACTTCA | 4590
CGGGGTTAAGTTTGTCACTACACTTGCTTGCAGCAG | 3840
CTAACGAAGGTTTGGTCTGTGGGTGACAAGCCAAGT | 3520
GACTTGAAAGAACAGCACGTTTTTGTCATCGCTTAC | 14400
TTGGCTACGTCCCTACACGTGTTTTGCGGTCTCGCT | 17900

Single results of other studies
Substance | target or system | test | setting | how to read | quantity | value
DDX5 (Homo sapiens, UniProt P17844) | RBMX (Homo sapiens, UniProt P38159) | cross-linking MS | hits only |  | interaction screen | cross-linked
CN(C)CCCn1cc(C2=C(c3c[nH]c4ccccc34)C(=O)NC2=O)c2ccccc21 | BRSK1 (Homo sapiens, UniProt Q8TDC3) | enzyme activity, inhibitor | 0.5 µM | relative to: control | remaining activity | 76.9%
MPHOSPH6 (Homo sapiens, UniProt Q99547) | EXOSC3 (Homo sapiens, UniProt Q9NQT5) | cross-linking MS | hits only |  | interaction screen | cross-linked
RBMX (Homo sapiens, UniProt P38159) | HNRNPK (Homo sapiens, UniProt P61978) | cross-linking MS | hits only |  | interaction screen | cross-linked
ATP5PD (Homo sapiens, UniProt O75947) | ATP5F1B (Homo sapiens, UniProt P06576) | cross-linking MS | hits only |  | interaction screen | cross-linked

For quick reference, copied from above (single results of other studies):
Substance | target or system | test | setting | how to read | quantity | value
DDX5 (Homo sapiens, UniProt P17844) | RBMX (Homo sapiens, UniProt P38159) | cross-linking MS | hits only |  | interaction screen | cross-linked
